Measurements pooled from the literature.
A part holds a random share of what one study measured.
Chain of UniProt P06241 (whole entry, looked up): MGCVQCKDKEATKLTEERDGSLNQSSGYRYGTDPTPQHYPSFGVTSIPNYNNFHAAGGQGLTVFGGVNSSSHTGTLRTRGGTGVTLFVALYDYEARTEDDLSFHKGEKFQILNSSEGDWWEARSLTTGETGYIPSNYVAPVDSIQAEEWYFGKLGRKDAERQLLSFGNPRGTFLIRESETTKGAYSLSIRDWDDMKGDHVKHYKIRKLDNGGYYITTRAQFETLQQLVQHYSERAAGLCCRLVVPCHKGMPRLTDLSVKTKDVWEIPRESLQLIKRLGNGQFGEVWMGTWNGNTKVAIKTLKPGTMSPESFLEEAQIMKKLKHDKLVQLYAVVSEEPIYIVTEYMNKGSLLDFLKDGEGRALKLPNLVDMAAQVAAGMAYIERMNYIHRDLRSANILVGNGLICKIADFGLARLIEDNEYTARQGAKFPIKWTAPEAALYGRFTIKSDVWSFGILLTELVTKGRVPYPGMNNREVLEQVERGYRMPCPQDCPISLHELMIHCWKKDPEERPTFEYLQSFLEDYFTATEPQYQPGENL
Chain of UniProt Q13705 (whole entry, looked up): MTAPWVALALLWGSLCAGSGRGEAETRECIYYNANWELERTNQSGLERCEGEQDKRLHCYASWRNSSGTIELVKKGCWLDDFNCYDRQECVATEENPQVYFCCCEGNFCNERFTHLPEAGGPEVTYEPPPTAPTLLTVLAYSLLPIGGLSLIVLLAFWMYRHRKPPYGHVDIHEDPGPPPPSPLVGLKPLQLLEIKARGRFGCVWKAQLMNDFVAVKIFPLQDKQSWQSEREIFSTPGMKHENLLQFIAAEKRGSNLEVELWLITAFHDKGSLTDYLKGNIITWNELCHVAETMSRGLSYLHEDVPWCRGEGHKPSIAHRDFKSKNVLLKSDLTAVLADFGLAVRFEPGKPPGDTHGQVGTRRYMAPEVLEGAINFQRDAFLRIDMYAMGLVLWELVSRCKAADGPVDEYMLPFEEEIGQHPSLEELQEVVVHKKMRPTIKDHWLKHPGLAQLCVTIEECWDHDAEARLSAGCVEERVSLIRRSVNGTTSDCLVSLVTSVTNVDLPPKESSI
Chain of UniProt Q9NS66 (whole entry, looked up): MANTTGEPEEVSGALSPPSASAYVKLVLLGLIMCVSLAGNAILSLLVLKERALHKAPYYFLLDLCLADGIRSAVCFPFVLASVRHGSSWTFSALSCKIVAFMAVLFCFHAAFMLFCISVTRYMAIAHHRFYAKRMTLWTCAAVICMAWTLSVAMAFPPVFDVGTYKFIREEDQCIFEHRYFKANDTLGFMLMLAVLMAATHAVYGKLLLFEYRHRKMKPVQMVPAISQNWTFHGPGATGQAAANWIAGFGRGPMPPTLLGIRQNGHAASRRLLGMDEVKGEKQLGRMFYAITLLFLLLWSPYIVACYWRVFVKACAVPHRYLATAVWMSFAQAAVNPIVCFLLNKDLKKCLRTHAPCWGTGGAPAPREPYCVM
Chain of UniProt Q96SB4 (whole entry, looked up): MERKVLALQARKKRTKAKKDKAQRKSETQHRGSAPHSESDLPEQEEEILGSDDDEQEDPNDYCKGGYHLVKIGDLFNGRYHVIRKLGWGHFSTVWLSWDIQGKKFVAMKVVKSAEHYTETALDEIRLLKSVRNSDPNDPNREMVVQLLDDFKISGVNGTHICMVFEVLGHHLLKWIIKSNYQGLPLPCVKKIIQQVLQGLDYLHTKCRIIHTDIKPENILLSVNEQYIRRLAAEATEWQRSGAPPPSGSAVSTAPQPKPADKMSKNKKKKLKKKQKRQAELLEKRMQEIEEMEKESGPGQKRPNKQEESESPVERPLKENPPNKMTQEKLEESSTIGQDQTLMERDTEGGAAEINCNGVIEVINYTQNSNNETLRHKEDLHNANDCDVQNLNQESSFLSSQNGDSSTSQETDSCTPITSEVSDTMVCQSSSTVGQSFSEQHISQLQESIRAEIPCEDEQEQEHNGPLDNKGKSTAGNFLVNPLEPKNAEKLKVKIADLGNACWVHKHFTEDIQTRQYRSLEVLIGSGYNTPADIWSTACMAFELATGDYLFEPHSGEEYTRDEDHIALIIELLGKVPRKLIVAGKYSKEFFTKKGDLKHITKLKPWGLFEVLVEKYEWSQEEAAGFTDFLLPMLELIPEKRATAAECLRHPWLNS
Chain of UniProt Q6P2M8 (whole entry, looked up): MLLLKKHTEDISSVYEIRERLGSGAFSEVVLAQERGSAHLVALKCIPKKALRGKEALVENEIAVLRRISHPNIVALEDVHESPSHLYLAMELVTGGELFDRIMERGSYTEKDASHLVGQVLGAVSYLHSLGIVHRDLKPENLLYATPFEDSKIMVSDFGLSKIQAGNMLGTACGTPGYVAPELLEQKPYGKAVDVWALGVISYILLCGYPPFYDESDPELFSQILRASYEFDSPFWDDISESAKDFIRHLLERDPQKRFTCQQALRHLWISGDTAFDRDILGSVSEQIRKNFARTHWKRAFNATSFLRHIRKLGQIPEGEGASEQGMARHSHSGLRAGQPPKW
Chain of UniProt Q9GZQ6 (whole entry, looked up): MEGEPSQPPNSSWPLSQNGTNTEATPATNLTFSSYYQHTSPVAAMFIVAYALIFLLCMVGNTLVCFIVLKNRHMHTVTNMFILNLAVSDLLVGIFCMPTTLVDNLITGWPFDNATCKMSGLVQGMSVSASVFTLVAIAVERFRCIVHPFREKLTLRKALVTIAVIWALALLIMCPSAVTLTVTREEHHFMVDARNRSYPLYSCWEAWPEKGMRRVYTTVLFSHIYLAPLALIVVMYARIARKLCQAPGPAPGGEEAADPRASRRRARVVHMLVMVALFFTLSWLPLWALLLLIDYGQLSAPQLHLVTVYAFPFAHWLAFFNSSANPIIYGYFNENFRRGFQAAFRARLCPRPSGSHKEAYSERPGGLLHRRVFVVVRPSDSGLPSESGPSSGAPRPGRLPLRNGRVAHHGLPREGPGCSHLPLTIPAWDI
Chain of UniProt P00519 (whole entry, looked up): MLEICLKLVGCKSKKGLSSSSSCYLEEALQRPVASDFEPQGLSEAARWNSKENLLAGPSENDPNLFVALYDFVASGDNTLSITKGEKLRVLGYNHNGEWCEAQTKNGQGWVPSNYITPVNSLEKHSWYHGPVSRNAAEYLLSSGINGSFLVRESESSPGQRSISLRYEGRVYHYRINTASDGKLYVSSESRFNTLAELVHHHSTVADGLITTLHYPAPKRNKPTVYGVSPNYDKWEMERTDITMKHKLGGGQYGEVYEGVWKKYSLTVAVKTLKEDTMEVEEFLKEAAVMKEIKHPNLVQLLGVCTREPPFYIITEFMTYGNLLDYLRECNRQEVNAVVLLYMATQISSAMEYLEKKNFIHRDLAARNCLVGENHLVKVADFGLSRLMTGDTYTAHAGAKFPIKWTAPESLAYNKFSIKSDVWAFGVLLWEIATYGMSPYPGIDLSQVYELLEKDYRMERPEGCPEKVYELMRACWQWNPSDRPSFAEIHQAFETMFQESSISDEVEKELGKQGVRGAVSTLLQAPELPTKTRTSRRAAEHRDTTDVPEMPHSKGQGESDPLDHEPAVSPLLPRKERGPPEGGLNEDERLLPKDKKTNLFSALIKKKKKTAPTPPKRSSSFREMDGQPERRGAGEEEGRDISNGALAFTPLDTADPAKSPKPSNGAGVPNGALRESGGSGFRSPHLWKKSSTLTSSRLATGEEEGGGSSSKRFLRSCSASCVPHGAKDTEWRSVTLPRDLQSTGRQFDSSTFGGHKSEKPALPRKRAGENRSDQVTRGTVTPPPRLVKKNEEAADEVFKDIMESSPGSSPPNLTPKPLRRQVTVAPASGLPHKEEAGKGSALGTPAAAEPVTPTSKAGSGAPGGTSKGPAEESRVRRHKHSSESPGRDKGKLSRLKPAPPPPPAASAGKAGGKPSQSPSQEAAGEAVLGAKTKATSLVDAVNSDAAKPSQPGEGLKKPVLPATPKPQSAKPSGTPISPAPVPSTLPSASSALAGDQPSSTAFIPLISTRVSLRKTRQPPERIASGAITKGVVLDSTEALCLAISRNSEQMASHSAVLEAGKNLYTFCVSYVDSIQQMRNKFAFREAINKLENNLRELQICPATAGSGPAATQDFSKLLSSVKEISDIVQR

Set 1 — technique: competition with immobilised ligand; concentration: 0.1 µM
Structure (SMILES): CS(=O)(=O)N1CCCC(NC(=O)[C@H](CCC2CCCCC2)NC(=O)c2ccc(CNc3ncnc4c3nnn4-c3ccccc3)cc2)C1 (stereo partly shown)
| target | test | remaining binding [%] |
| --- | --- | --- |
| Inhibitor of nuclear factor kappa-B kinase subunit epsilon (IKBKE, Homo sapiens, UniProt Q14164) | cell-free assay | 73 |
| Receptor-interacting serine/threonine-protein kinase 1 (RIPK1, Homo sapiens, UniProt Q13546) | cell-free assay | 94 |
| Dual specificity protein kinase TTK (TTK, Homo sapiens, UniProt P33981) | cell-free assay | 91 |
| Myosin light chain kinase 2, skeletal/cardiac muscle (MYLK2, Homo sapiens, UniProt Q9H1R3) | cell-free assay | 90 |
| Serine/threonine-protein kinase TBK1 (TBK1, Homo sapiens, UniProt Q9UHD2) | cell-free assay | 88 |
| Tyrosine-protein kinase ABL1, phosphorylated (ABL1, Homo sapiens, UniProt P00519) | cell-free assay | 82 |
| Mitogen-activated protein kinase kinase kinase 12 (MAP3K12, Homo sapiens, UniProt Q12852) | cell-free assay | 100 |
| Serine/threonine-protein kinase Nek10 (NEK10, Homo sapiens, UniProt Q6ZWH5) | cell-free assay | 100 |
| Activin receptor type-2B (ACVR2B, Homo sapiens, UniProt Q13705) | binding | 83 |
| Serine/threonine-protein kinase tousled-like 2 (TLK2, Homo sapiens, UniProt Q86UE8) | cell-free assay | 82 |
| Protein kinase C eta type (PRKCH, Homo sapiens, UniProt P24723) | cell-free assay | 79 |

Set 2 — observed: enzyme activity; mode: inhibitor; concentration: 1 µM
SMILES: CC(C)S(=O)(=O)c1ccc2nccc(Nc3ccc4sc(C5CCCC5)nc4c3)c2c1
| target | activity vs control [%] |
| --- | --- |
| Tyrosine-protein kinase Fyn (FYN, Homo sapiens, UniProt P06241) | 94 |
| Rhodopsin kinase GRK7 (GRK7, Homo sapiens, UniProt Q8WTQ7) | 102 |
| Platelet-derived growth factor receptor beta (PDGFRB, Homo sapiens, UniProt P09619) | 90 |
| Mitogen-activated protein kinase 13 (MAPK13, Homo sapiens, UniProt O15264) | 102 |
| Tyrosine-protein kinase receptor UFO (AXL, Homo sapiens, UniProt P30530) | 94.5 |
| SRSF protein kinase 1 (SRPK1, Homo sapiens, UniProt Q96SB4) | 95 |
| AP2-associated protein kinase 1 (AAK1, Homo sapiens, UniProt Q2M2I8) | 95 |
| Serine/threonine-protein kinase MRCK beta (CDC42BPB, Homo sapiens, UniProt Q9Y5S2) | 115 |
| Calcium/calmodulin-dependent protein kinase type 1B (PNCK, Homo sapiens, UniProt Q6P2M8) | 115 |

Set 3 — Compound: CCN(c1nc(N)c(C(=O)N=C(N)N)nc1Cl)C(C)C; observed: β-arrestin recruitment; mode: agonist; technique: PRESTO-Tango; concentration: 10 µM; relative to: untreated
| target | fold over basal |
| --- | --- |
| Relaxin-3 receptor 2 (RXFP4, Homo sapiens, UniProt Q8TDU9) | 1.43 |
| Neuropeptide FF receptor 1 (NPFFR1, Homo sapiens, UniProt Q9GZQ6) | 1.18 |
| G-protein coupled receptor 61 (GPR61, Homo sapiens, UniProt Q9BZJ8) | 0.73 |
| Metabotropic glutamate receptor 4 (GRM4, Homo sapiens, UniProt Q14833) | 0.96 fold |
| ADGRG6 (Homo sapiens, UniProt Q86SQ4) | 1.42 |
| Mas-related G-protein coupled receptor member X4 (Homo sapiens, UniProt Q96LA9) | 1.92 |
| Lysophosphatidic acid receptor 1 (LPAR1, Homo sapiens, UniProt Q92633) | 0.88 |
| Gonadotropin-releasing hormone receptor (GNRHR, Homo sapiens, UniProt P30968) | 1.08 fold |
| G-protein coupled receptor 62 (GPR62, Homo sapiens, UniProt Q9BZJ7) | 1.19 |
| Probable G-protein coupled receptor 173 (GPR173, Homo sapiens, UniProt Q9NS66) | 1.03 |
| Neuropeptide Y receptor type 4 (NPY4R, Homo sapiens, UniProt P50391) | 0.83 |
| Cannabinoid receptor 2 (CNR2, Homo sapiens, UniProt P34972) | 1.24 |
| Trace amine-associated receptor 9 (TAAR9, Homo sapiens, UniProt Q96RI9) | 0.87 fold |

Set 4 — observed: enzyme activity; mode: inhibitor; concentration: 0.5 µM; relative to: control
Target: Serine/threonine-protein kinase D1 (PRKD1, Homo sapiens, UniProt Q15139)
Chain of UniProt Q15139 (whole entry, looked up): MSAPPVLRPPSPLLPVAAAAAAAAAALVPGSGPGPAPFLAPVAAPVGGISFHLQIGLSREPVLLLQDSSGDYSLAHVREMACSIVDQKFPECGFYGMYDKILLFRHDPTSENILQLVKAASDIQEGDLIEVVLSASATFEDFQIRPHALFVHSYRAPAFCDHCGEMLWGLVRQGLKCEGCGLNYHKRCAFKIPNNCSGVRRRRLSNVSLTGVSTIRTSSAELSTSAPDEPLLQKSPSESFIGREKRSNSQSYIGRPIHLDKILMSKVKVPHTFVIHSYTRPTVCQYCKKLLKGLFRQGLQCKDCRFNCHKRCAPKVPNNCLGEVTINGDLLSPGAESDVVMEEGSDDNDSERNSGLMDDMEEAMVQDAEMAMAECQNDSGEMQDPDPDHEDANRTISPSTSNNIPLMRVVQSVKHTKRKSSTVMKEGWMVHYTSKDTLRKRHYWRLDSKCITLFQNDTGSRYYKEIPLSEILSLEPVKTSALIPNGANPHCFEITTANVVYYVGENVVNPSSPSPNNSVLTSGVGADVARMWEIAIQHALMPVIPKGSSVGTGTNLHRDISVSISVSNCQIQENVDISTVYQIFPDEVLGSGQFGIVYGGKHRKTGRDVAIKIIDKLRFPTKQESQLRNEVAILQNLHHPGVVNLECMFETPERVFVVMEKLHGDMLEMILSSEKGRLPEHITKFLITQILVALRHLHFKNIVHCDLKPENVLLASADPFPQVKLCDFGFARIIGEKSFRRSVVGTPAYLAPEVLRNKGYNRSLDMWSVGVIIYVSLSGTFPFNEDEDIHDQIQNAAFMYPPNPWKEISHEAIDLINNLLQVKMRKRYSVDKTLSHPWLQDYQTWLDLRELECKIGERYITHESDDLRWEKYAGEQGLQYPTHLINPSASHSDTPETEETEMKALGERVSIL
| Structure (SMILES) | remaining activity [%] |
| --- | --- |
| c1cc(-c2cnn3cc(-c4ccc(OCCN5CCCCC5)cc4)cnc23)ccn1 | 81.9 |
| CCCCc1c(-c2ccc(O)cc2)[nH]c2nccnc12 | 77.7 |
| COc1ccc2c(c1)c(C1=C(c3c[nH]c4ccccc34)C(=O)NC1=O)cn2CCCN(C)C | 68.8 |
| Clc1ccc(Nc2nnc(Cc3ccncc3)c3ccccc23)cc1 | 101 |
| COc1cc2c(N3CCN(C(=O)Nc4ccc(OC(C)C)cc4)CC3)ncnc2cc1OCCCN1CCCCC1 | 96.1 |
| C[C@@H](N)[C@H]1CC[C@H](C(=O)Nc2ccncc2)CC1 | 97.5 |
| CN(C)S(=O)(=O)c1ccc2c(c1)/C(=C/c1cc3c([nH]1)CCCC3)C(=O)N2 | 102 |
| N#CC(c1ccnc(NCCc2cccnc2)n1)c1nc2ccccc2s1 (stereo not shown) | 82.4 |
| O=C1NC(=O)/C(=C/c2ccc3c(c2)OC(F)(F)O3)S1 | 94.8 |
| Cc1cc(Nc2cc(N3CCN(C)CC3)nc(Sc3ccc(NC(=O)C4CC4)cc3)n2)[nH]n1 | 102 |
| CC(C)n1cnc2c(Nc3cccc(Cl)c3)nc(NCCO)nc21 | 99.2 |
| COc1cccc(-c2cc(=O)c3ccccc3o2)c1N | 103 |
| O=C(O)/C=C/c1cc(Br)c(Br)c(Br)c1Br | 88.9 |
| Oc1cccc(-c2nc(N3CCOCC3)c3oc4ncccc4c3n2)c1 | 98.3 |
| CCCCc1c(-c2ccc(OC)cc2)[nH]c2nccnc12 | 92.9 |
| CC(C)(C)c1nc2c3cc[nH]c(=O)c3c3cc(F)ccc3c2[nH]1 | 8.19 |
| O=C(c1cc2cc(O)ccc2[nH]1)c1cc2cc(O)ccc2[nH]1 | 58.5 |
| Cc1ccc(S(=O)(=O)/C=C/C#N)cc1 | 93.8 |
| Nc1nc(Nc2ccc(S(N)(=O)=O)cc2)nn1C(=S)Nc1c(F)cccc1F | 7.79 |
| COc1ccc(COc2ccc(Cc3cnc(N)nc3N)cc2OC)cc1 | 95.2 |
| O=C1c2ccccc2-c2nc3nnnn3nc21 | 86.5 |
| O=Nc1c(-c2c(O)[nH]c3cc(Br)ccc23)[nH]c2ccccc12 | 93.6 |
| O=c1c(-c2ccc(F)cc2)c(-c2ccncc2)[nH]n1-c1ccc(Cl)cc1 | 84.7 |
| O=c1cc(N2CCOCC2)oc2c(-c3ccccc3)cccc12 | 98.3 |
| O=C1NC(=O)c2c1c1c3ccccc3[nH]c1c1[nH]c3cc(Br)ccc3c21 | 51.9 |
